Measured values collected from several papers.
Lines come from different studies, so protocols differ.
Target: Casein kinase I isoform gamma-2 (CSNK1G2, Homo sapiens, UniProt P78368)
UniProt P78368, sequence (whole entry, looked up): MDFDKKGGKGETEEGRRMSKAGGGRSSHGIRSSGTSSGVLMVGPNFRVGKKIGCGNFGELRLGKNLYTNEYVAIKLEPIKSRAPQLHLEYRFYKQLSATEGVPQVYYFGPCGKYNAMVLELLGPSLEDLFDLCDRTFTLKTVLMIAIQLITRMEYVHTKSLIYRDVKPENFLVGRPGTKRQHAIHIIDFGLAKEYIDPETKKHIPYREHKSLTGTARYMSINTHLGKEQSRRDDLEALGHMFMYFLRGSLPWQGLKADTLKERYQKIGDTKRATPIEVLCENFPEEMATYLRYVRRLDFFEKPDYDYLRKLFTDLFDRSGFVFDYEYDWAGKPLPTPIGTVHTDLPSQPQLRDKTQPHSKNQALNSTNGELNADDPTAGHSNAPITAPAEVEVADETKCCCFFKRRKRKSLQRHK

CCN(CC)c1ccc(C2=NNC(=O)CC2C)cc1[N+](=O)[O-] (centres unmarked)  remaining activity (enzyme activity, inhibitor; 10 µM; baseline: vehicle): 107%
O=C(NC1CCC1)c1ccc2nc(-c3cccc(NS(=O)(=O)NCCN4CCCCC4)c3)cn2c1  remaining activity (enzyme activity; 10 µM): 76%
C[C@@H](c1ccc(-n2cnc3c(N)ncnc32)cc1)N1CCc2nn(C)c(Cc3ccccc3)c2C1=O  remaining binding (KINOMEscan; 0.1 µM; baseline: DMSO control): 96%
Cc1cc(Nc2cc(N3CCN(C)CC3)nc(Sc3ccc(NC(=O)C4CC4)cc3)n2)[nH]n1  remaining activity (kinase activity, KinaseProfiler; 0.03 µM, species human; baseline: control): 108%
CC[C@@H]1[C@H](F)C(=O)N[C@@H]1COc1nccc2cc(C(N)=O)c(OC)cc12  inhibition (ATP-site probe binding, ActivX profiling; THP-1 cell lysate; 0.01 mM, Lys2 site): 4.3%
COc1cc(F)ccc1-c1ncnc(Nc2cccc(C[S@](C)(=N)=O)c2)n1  remaining activity (kinase activity; 10 µM, together with: 10 µM ATP): 87%
C1=C/COCc2cc(ccc2OCCN2CCCC2)Nc2nccc(n2)-c2cccc(c2)COC/1  percent of control (concentration not given): 92%
COc1cc(N2CCN(C)CC2)ccc1Nc1nc(N)n(C(=S)NCc2c(Cl)cccc2Cl)n1  remaining activity (enzyme activity; 10 µM; baseline: control): 33%
CCCOc1ccc(OC)c(F)c1C(=O)c1ccc(C(=O)N[C@@H]2CNC[C@H]2NC(=O)c2ccc3[nH]ncc3c2)cc1  remaining activity (enzyme activity; 10 µM): 60%
C=CC(=O)N1CCC(C(=O)NCC(=O)N2CCN(c3nc(-c4cnc(N)nc4C(F)F)nc(N4CCOCC4)n3)CC2)CC1  remaining binding (KINOMEscan; 1 µM): 100%
C=CC(=O)N1CCC(COCC(=O)N2CCN(c3nc(-c4cnc(N)nc4C(F)F)nc(N4CCOC[C@@H]4C)n3)CC2)CC1  remaining binding (KINOMEscan; 1 µM; baseline: DMSO control): 99%
